Measured values collected from several papers.
Numbered parts are unrelated; each lists some results of a single study. Values joined by “and” are separate records of one study, mostly repeats; a detail may differ.
UniProt Q9H4B4, sequence (whole entry, looked up): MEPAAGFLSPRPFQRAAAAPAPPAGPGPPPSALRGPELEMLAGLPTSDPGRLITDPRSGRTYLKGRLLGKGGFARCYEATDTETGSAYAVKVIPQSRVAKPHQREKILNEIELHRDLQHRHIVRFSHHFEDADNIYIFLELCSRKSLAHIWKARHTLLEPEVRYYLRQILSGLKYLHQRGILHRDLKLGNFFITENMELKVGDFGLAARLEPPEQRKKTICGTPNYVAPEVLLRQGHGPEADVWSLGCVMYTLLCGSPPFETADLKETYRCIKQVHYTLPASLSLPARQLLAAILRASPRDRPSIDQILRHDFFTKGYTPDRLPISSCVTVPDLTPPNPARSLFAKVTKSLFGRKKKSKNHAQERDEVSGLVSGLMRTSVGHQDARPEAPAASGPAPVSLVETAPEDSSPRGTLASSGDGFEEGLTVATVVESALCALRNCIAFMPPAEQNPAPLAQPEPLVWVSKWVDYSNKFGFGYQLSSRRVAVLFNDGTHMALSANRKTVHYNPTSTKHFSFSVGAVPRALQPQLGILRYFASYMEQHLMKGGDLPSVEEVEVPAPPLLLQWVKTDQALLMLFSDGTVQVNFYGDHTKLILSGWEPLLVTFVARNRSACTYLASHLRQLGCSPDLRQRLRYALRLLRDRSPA
UniProt Q7L7X3, sequence (whole entry, looked up): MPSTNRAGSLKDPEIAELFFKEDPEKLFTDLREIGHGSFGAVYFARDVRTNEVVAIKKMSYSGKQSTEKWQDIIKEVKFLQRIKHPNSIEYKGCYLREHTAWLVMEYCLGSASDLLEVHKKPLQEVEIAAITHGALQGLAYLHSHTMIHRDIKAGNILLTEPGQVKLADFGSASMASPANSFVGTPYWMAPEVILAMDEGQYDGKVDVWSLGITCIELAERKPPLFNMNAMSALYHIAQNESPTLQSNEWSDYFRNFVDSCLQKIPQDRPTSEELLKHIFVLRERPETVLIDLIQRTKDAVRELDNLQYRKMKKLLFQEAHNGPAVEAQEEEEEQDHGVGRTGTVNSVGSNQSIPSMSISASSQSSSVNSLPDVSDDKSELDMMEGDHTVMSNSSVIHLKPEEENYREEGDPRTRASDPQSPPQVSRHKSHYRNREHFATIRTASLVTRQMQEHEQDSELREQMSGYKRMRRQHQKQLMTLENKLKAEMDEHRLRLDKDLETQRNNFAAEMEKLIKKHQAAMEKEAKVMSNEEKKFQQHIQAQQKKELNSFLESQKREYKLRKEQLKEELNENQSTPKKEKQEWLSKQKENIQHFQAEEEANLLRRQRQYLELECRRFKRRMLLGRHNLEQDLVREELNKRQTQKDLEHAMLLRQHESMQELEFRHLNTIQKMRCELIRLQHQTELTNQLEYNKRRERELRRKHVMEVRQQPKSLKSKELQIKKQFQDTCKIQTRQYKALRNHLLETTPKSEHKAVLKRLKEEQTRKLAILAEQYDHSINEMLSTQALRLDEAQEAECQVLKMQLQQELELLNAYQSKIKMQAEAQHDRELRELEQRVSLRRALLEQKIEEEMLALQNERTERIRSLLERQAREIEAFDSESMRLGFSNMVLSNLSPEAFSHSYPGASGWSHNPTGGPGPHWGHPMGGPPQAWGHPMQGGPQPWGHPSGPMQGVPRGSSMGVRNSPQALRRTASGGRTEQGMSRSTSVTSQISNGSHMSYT
UniProt P08581, sequence (whole entry, looked up): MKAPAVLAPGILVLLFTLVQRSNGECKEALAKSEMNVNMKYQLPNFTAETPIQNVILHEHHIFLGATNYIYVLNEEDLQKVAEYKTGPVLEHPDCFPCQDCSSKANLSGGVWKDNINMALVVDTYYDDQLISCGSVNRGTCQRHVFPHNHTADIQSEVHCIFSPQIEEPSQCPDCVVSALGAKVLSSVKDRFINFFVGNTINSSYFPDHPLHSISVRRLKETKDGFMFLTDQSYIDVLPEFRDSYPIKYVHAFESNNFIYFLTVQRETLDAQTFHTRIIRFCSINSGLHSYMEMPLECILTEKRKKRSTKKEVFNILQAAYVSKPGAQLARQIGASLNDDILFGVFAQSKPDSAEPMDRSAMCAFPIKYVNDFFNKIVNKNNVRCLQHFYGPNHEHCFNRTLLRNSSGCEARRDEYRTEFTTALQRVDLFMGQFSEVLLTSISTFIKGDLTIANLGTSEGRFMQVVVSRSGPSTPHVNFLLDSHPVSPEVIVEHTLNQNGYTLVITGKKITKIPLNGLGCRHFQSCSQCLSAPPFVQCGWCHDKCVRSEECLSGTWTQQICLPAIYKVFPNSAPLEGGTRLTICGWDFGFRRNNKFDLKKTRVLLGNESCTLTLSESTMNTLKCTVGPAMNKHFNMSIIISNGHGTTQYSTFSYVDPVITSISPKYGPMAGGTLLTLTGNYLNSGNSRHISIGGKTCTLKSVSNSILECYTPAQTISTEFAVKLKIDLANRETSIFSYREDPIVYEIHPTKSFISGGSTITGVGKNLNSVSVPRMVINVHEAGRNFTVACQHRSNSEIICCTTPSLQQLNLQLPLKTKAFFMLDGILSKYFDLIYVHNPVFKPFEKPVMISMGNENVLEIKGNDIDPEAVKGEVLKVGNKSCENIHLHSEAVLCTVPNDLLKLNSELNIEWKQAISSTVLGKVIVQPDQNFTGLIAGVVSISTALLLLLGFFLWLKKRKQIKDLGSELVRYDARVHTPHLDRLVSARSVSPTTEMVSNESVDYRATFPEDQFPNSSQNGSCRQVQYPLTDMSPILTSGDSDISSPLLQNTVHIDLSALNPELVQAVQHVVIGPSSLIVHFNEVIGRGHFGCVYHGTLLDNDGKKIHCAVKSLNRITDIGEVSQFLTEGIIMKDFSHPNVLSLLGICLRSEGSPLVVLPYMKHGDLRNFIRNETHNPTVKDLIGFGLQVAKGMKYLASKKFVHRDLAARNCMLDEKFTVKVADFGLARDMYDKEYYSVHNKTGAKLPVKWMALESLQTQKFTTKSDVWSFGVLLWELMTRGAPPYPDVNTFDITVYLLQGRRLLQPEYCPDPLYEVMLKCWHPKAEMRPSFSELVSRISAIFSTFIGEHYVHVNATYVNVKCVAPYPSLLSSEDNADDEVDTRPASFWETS
UniProt Q16539, sequence (whole entry, looked up): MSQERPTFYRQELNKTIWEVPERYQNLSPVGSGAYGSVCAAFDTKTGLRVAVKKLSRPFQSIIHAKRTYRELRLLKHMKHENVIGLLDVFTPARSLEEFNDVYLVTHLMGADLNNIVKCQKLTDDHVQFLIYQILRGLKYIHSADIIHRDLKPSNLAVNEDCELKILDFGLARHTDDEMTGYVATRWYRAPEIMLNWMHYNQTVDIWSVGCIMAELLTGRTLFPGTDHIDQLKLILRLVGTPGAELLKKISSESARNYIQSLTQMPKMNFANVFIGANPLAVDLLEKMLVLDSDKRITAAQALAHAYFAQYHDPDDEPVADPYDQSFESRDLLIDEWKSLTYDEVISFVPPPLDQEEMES
UniProt Q16566, sequence (whole entry, looked up): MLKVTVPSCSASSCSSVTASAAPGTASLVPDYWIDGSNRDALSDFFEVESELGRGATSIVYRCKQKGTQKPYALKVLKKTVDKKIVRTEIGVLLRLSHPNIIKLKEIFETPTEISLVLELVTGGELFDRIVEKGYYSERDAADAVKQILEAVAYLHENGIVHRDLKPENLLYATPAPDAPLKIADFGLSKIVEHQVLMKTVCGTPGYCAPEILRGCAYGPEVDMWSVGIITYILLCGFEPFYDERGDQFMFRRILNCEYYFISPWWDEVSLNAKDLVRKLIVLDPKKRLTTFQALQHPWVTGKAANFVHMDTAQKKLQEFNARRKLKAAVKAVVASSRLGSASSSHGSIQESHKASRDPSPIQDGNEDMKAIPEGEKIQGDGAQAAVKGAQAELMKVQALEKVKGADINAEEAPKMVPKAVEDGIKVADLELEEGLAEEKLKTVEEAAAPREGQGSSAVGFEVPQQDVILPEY
UniProt P51956, sequence (whole entry, looked up): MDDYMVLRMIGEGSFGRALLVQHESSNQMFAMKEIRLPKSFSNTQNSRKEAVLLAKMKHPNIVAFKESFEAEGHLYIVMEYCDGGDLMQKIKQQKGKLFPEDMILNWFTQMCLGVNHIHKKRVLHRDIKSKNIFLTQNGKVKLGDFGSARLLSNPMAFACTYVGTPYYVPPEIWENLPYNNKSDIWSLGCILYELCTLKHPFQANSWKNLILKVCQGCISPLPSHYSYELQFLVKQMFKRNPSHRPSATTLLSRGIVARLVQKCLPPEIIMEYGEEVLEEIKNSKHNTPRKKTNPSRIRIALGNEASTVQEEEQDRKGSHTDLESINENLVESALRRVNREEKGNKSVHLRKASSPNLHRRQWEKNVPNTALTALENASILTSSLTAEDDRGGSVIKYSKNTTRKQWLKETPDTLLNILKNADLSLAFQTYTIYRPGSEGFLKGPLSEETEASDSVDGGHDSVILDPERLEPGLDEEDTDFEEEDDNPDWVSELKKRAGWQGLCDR

Set 1 — measurement: inhibition
SMILES: COc1cc(C(=O)N2CCC(N3CCN(C)CC3)CC2)ccc1Nc1ncc2c(n1)N(C)c1ccccc1C(=O)N2C
TRKC (mouse); probe labelling, KiNativ, measured: LYS1 site peptide; brain tissue lysate (mouse); 0.1 µM, together with: ADP acyl-phosphate probe: 12.7%
OSR1 (mouse); probe labelling, KiNativ ADP probe; mouse brain lysate; 1 µM, LYS2 labelled site: -10.4%
NUAK2 human; KiNativ profiling; human PBMC lysate; concentration not given, ADP probe, Lys1 site: -11.1%
ULK3 (mouse); probe labelling, KiNativ, measured: EVVAIkCVAK peptide, LYS1 site; brain tissue lysate (mouse); 1 µM, together with: ADP acyl-phosphate probe: -1.8%
NEK9 (mouse); probe labelling, KiNativ ADP probe; mouse brain lysate; 0.1 µM, LYS1 labelled site: -9.9%
SGK2 (mouse); probe labelling, inhibitor, KiNativ ActivX ATP probe; mouse brain lysate; 1 µM, Lys1 site peptide: -9.8%
FER human; KiNativ profiling; human PBMC; 1 µM, activation loop site, together with: ATP acyl phosphate probe: -3.4%
PKCa (mouse); probe labelling, KiNativ, measured: LYS1 site peptide; brain tissue lysate (mouse); 0.1 µM, together with: ATP acyl-phosphate probe: -0.9%
ZAP70 human; KiNativ profiling; human PBMC; 0.1 µM, DFG motif site, together with: ATP acyl phosphate probe: 8.8%
MAP/microtubule affinity-regulating kinase 4 (Mus musculus, UniProt Q8CIP4); KiNativ profiling; mouse brain lysate; 1 µM, LYS1 site, together with: ADP acyl phosphate probe: -4.9%
human PBMC; probe labeling, inhibitor, KiNativ profiling, measured: EVAVkIIDK; cell lysate; concentration not given, LYS1 site, together with: ADP acyl-phosphate probe: -2.2%
CDK5 (mouse); probe labelling, KiNativ ATP probe; mouse brain lysate; 1 µM, LYS2 labelled site: 14.5%
RSK3 domain 1 (mouse); probe labelling, inhibitor, KiNativ ActivX ADP probe; mouse brain lysate; 1 µM, Lys1 site peptide: 0.6%
mouse CaMK2β and CaMK2δ; probe labelling, KiNativ ATP probe; mouse brain lysate; 1 µM, LYS1 site: -14.1%

Set 2 — effect on: RNA clamping; technique: fluorescence polarization; tested at: concentration not given; together with: FAM-labelled poly r(AG)8 RNA; reading: higher = more clamping; measurement: fluorescence polarization change
Target: Eukaryotic initiation factor 4A-I (EIF4A1, Homo sapiens, UniProt P60842)
UniProt P60842, sequence (whole entry, looked up): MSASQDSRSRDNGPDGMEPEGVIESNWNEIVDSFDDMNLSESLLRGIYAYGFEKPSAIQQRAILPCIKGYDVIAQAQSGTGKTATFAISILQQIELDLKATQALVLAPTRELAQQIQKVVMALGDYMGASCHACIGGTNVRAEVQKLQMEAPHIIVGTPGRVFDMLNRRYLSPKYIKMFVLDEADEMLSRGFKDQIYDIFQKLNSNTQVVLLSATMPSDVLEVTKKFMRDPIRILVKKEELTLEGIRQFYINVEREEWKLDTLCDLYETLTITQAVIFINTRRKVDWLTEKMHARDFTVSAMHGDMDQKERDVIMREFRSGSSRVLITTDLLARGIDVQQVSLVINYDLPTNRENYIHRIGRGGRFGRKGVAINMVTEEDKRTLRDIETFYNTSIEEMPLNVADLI
CN[C@@]12C(=O)[C@H](C(=O)OC)[C@@H](c3ccccc3)[C@]1(c1ccc(OC)cc1)Oc1cc(OC)cc(OC)c12: -3.7 mP
COc1cc(F)cc2c1[C@]1(O)[C@H](O)[C@H](C#N)[C@@H](c3ccccc3)[C@]1(c1ccc(Br)cc1)O2: 41 mP
C#CCOc1ccc(-c2nc3c(c(=O)n2CC#C)[C@@H](c2ccccc2)[C@]2(c4ccc(OC)cc4)Oc4cc(OC)cc(OC)c4[C@]32O)cc1: -11 mP
COC(=O)[C@H]1[C@@H](O)[C@@]2(O)c3c(OC)cc(O)cc3O[C@@]2(c2ccc(Br)cc2)[C@@H]1c1ccccc1: -2.3 mP and 72.3 mP
COC(=O)[C@H]1C(=O)[C@@]2(NCCN(C)C)c3c(OC)cc(OC)cc3O[C@@]2(c2ccc(OC)cc2)[C@@H]1c1ccccc1: -3.2 mP
CCOC(=O)COc1cc(OC)c2c(c1)O[C@@]1(c3ccc(OC)cc3)[C@H](c3ccccc3)c3c(nc(-c4ccccc4)[nH]c3=O)[C@@]21OCC(=O)OCC: -15.9 mP
COC(=O)[C@@H]1[C@@H](c2ccccc2)[C@]2(c3ccc(OC)cc3)Oc3cc(OC)cc(OC)c3[C@@]23NC(C2CCC2)=N[C@@]13O: 72.1 mP
C#CCCC1(CCNC(=O)CCCn2c(-c3ccccc3)nc3c(c2=O)[C@@H](c2ccccc2)[C@]2(c4ccc(OC)cc4)Oc4cc(OC)cc(OC)c4[C@]32O)N=N1: 4.9 mP
CCCCN[C@@]12C(=O)[C@H](C(=O)OC)[C@@H](c3ccccc3)[C@]1(c1ccc(OC)cc1)Oc1cc(OC)cc(OC)c12: 11.3 mP
COC(=O)[C@@H]1[C@@H](c2ccccc2)[C@]2(c3ccc(OC)cc3)Oc3cc(OC)cc(OC)c3[C@@]23N=C2CCCCN2[C@@]13O: 50.7 mP
COc1cc(OC)c2c(c1)O[C@@]1(c3ccc(Br)cc3)[C@H](c3ccccc3)C3=C(N[C@@H]4CCCN4C3=O)[C@@]21O: 44.5 mP
COc1cc(OC)c2c(c1)O[C@@]1(c3ccc(Br)cc3)[C@H](c3ccccc3)c3c(nc(-c4ccccc4)[nH]c3=O)[C@@]21O: 11.7 mP
COC(=O)[C@@H]1[C@@H](c2ccccc2)[C@]2(c3ccc(OC)cc3)Oc3cc(OC)cc(OC)c3[C@@]23NC(C2CCCCC2)=N[C@@]13O: 63.4 mP

Set 3 — effect on: cell-free assay; technique: competition with immobilised ligand; tested at: 1 µM; measurement: remaining binding
SMILES: CCC(=O)N[C@@H]1CC[C@H](C(=O)N(C)c2ccc(-c3nc4ccccc4o3)cc2)C1
PLK3 (Homo sapiens, UniProt Q9H4B4): 84%
CSNK2A2 (Homo sapiens, UniProt P19784): 100%
MAP3K20 (Homo sapiens, UniProt Q9NYL2): 78%
Tyrosine-protein kinase JAK1, JH1 (JAK1, Homo sapiens, UniProt P23458): 100%
BMPR2 (Homo sapiens, UniProt Q13873): 100%
EGFR (Homo sapiens, UniProt P00533, G719C): 100%
TAOK1 (Homo sapiens, UniProt Q7L7X3): 97%
KIT (Homo sapiens, UniProt P10721, V559D): 100%
PIK3CA (Homo sapiens, UniProt P42336, M1043I): 100%

Set 4 — Structure (SMILES): O=C(O)/C=C/c1cc(Br)c(Br)c(Br)c1Br; effect on: enzyme activity; action: inhibitor; tested at: 0.5 µM; relative to: control; measurement: remaining activity
CLK4 (Homo sapiens, UniProt Q9HAZ1): 45.4%
NEK3 (Homo sapiens, UniProt P51956): 83.5%
CAMK4 (Homo sapiens, UniProt Q16566): 103%
Cyclin-dependent kinase 9, with cyclin K (CDK9, Homo sapiens, UniProt P50750): 65.3%
TXK (Homo sapiens, UniProt P42681): 98.7%
MARK2 (Homo sapiens, UniProt Q7KZI7): 82.1%
PAK3 (Homo sapiens, UniProt O75914): 100%
RPS6KA4 (Homo sapiens, UniProt O75676): 103%
PLK3 (Homo sapiens, UniProt Q9H4B4): 73.6%
AKT2 (Homo sapiens, UniProt P31751): 97.5%
MAPK14 (Homo sapiens, UniProt Q16539): 99.5%
MAPK1 (Homo sapiens, UniProt P28482): 98.5%
MET (Homo sapiens, UniProt P08581): 84.5%
MAPK11 (Homo sapiens, UniProt Q15759): 92.7%
